Measured values from different studies.
Every numbered part comes from another study and shows a few of its results, in no order. Substitutions count along the parent as printed.

Block 1
Target: Interferon regulatory factor 5, full length, phosphomimetic (IRF5, Homo sapiens, UniProt Q13568-2, residues 1-514, S451D/S453D/S456D/S462D)
Technique: protein-binding microarray
Molecule type: double-stranded DNA, one strand shown
Sample: in vitro
Tested at: 940 nM top
Notes: 60-bp whole probe
With: salmon DNA 0.4 mg/ml
Relative to: random background probes
Direction: higher = stronger binding
Shared flanks, not repeated: GCCTAGCAC … GTCTTGATTCGCTTGACGCTGCTG
`GACCGTTTCGGGACTGGGGACGTGCTA`: “fitted relative affinity” 2.08 z-score.
Under “fitted relative affinity”, `TTAGGTTTCAGGTTTCGGTTAGTGCTA` is recorded as 8.28 z-score.
Under “fitted relative affinity”, `TTAGATTTCAGATTCGATTAGTGCTAG` is recorded as 0.506 z-score.
For `TTAGGTTTCCTACTGATTTAGTGCTAG`, “fitted relative affinity” read 0.915 z-score.
`TGAGTGAAAGGCCCATACATGTGCTAG` — result for “fitted relative affinity”: -0.373 z-score.
For `GACGATATCAGTTTCGAGCCGTGCTAG`, “fitted relative affinity” read 3.06 z-score.
For `ACAAGTTTTTATTTTCTGAAGTGCTAG`, “fitted relative affinity” read 0.915 z-score.
`GACGGACGGGGGTTTCGGGACGTGCTA` — result for “fitted relative affinity”: 5.41 z-score.
`TCAACTTCTCTTTTTGCACTGTGCTAG`: “fitted relative affinity” 1.22 z-score.
`TCACCTATCAGTTTAATACTGTGCTAG`: “fitted relative affinity” 0.41 z-score.
`CAGAGTCTAGCCATTGTGGGTGTGCTA` — result for “fitted relative affinity”: -0.505 z-score.
`TCATGTCTGGATGTGCCACTGTGCTAG`: “fitted relative affinity” -0.0305 z-score.
For `TCAACTGTCTGTTTCCTACTGTGCTAG`, “fitted relative affinity” read 0.629 z-score.
`AGTGAATTAGGTTTCACTTTGTGCTAG` — result for “fitted relative affinity”: 5.41 z-score.
For `TTAGGTTTCGGTATGGGTTAGTGCTAG`, “fitted relative affinity” read 15.6 z-score.
For `TTAGGTATCGACTTTCCGTTAGTGCTA`, “fitted relative affinity” read 5.17 z-score.
`CCCATTCTCAGCCCTGCGCATGTGCTA` — result for “fitted relative affinity”: 0.931 z-score.
`TTAGGTATCGACGCTGGGTTAGTGCTA`: “fitted relative affinity” 4.28 z-score.
For `TTAGGACTGGGGTTTCCGTTAGTGCTA`, “fitted relative affinity” read 0.429 z-score.

Block 2
Target: CCNE2, cyclin fold, Cln2 fusion (human)
Technique: yeast growth competition, sequencing
Sample: yeast
Notes: weak parent motif
Relative to: not given
Direction: higher = stronger binding
Parent: PKN2 docking peptide (human); VSAVQKLDFSDTM; partner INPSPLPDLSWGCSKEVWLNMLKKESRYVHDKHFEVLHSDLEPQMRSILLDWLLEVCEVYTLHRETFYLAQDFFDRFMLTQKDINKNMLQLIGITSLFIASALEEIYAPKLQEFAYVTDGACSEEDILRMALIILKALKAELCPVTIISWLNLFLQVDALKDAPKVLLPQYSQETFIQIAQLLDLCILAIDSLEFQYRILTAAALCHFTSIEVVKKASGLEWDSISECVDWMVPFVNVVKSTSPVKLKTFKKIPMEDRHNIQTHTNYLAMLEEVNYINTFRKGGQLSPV
For `D8Q`, “normalised enrichment score” read 0.425.
For `T12C`, “normalised enrichment score” read 0.821.
`T12H`: “normalised enrichment score” 0.125.
`V4H` — result for “normalised enrichment score”: -0.262.
Under “normalised enrichment score”, `V1A` is recorded as 0.111.
For `L7Y`, “normalised enrichment score” read -0.316.
For `V1D`, “normalised enrichment score” read -0.418.
For `V1I`, “normalised enrichment score” read 0.0122.
`V1Y` — result for “normalised enrichment score”: 0.855.
For `L7G`, “normalised enrichment score” read -0.189.
For `A3L`, “normalised enrichment score” read 0.702.
For `S10I`, “normalised enrichment score” read 0.298.
Under “normalised enrichment score”, `V4R` is recorded as 0.00743.
`L7H` — result for “normalised enrichment score”: 0.665.
`K6T`: “normalised enrichment score” 0.208.
For `M13C`, “normalised enrichment score” read -0.139.
Under “normalised enrichment score”, `L7A` is recorded as 0.0464.
Under “normalised enrichment score”, `S10D` is recorded as -0.1.

Block 3
Target: UBE2E2 UBC core domain (UniProt Q96LR5)
Chain of UniProt Q96LR5 (whole entry, looked up): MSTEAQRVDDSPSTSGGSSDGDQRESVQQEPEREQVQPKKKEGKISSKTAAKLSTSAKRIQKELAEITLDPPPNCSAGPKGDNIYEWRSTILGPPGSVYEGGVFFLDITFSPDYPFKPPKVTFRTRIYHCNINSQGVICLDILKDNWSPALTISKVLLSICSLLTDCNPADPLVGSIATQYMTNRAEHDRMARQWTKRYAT
Technique: yeast two-hybrid
Sample: yeast
Notes: mostly zero background
Relative to: not given
Direction: higher = stronger interaction
B1: DZIP3 RING domain (UniProt Q86Y13); chain PDEEEEEEEPCVICHENLSPENLSVLPCAHKFHAQCIRPWLMQQGTCPTCRLHVLLPEEFP
B2: RNF19A RING domain (UniProt Q9NV58); chain ISKQIGDFIECPLCLLRHSKDRFPDIMTCHHRSCVDCLRQYLRIEISESRVNISCPECTERFNPHDIR
B3: MDM4 RING domain (UniProt O15151); chain MEDCQNLLKPCSLCEKRPRDGNIIHGRTGHLVTCFHCARRLKKAGASCPICKKEIQLVIKVF
`B1 (DZIP3 RING domain)`: “lacZ reporter activity” 0.
`B2 (RNF19A RING domain)` — result for “lacZ reporter activity”: 0.
Under “lacZ reporter activity”, `FDGDVDPDLKCALCHKVLEDPLTTPCGHVFCAGCVLPWVVQEGSCPARCRGRLSAKELN (PDZRN3 RING domain (UniProt Q9UPQ7))` is recorded as 0.
Under “lacZ reporter activity”, `NLSELTPYILCSICKGYLIDATTITECLHTFCKSCIVRHFYYSNRCPKCNIVVHQTQPLY (PCGF6 RING domain (UniProt Q9BYE7))` is recorded as 0.
`YQNEVDDDLVCHICLQPLLQPLDTPCGHTFCYKCLRNFLQEKDFCPLDRKRLHFKLCKK (LNX2 RING domain (UniProt Q8N448))` — result for “lacZ reporter activity”: 0.
Under “lacZ reporter activity”, `B3 (MDM4 RING domain)` is recorded as 0.

Block 4
Target: Prothrombin, mature alpha-thrombin (F2, Homo sapiens, UniProt P00734)
Technique: aptamer microarray, sandwich
Molecule type: DNA with 2'F-ANA
Sample: in vitro
Tested at: 200 nM
Notes: whole 15-mer aptamer, many near background
With: Cy3 exosite-II aptamer, 400 nM
Direction: higher = stronger binding
Sequence: GGTTGGTGTGGTTGG
`2'F-ANA at 4 11 13`: “mean fluorescence intensity” 210 a.u.
Under “mean fluorescence intensity”, `2'F-ANA at 2 3 6 9 10 14` is recorded as 286 a.u.
`2'F-ANA at 6 8 9 11 13 15`: “mean fluorescence intensity” 328 a.u.
Under “mean fluorescence intensity”, `2'F-ANA at 1 3 5 9 12 14` is recorded as 42.7 a.u.
`2'F-ANA at 1 2 3 5 6 7 8 10 11 12 13 14` — result for “mean fluorescence intensity”: 54.9 a.u.
Under “mean fluorescence intensity”, `2'F-ANA at 2 3 5 6 7 8 9 12 13` is recorded as 158 a.u.
For `2'F-ANA at 3 4 7 9 10 11`, “mean fluorescence intensity” read 337 a.u.
`2'F-ANA at 1 3 4 9 11 15` — result for “mean fluorescence intensity”: 168 a.u.
`2'F-ANA at 6 8 9 10 13 14 15` — result for “mean fluorescence intensity”: 98.7 a.u.
`2'F-ANA at 5 6 11 14 15` — result for “mean fluorescence intensity”: 75.9 a.u.
Under “mean fluorescence intensity”, `2'F-ANA at 1 4 5 8 10 11 13` is recorded as 65.9 a.u.
For `2'F-ANA at 1 2 4 6 9 11 12 13 15`, “mean fluorescence intensity” read 133 a.u.
`2'F-ANA at 1 3 5 6 7 9 10 11 12 13` — result for “mean fluorescence intensity”: 76.7 a.u.
For `2'F-ANA at 1 2 4 7 9 10 11 14`, “mean fluorescence intensity” read 53.4 a.u.
`2'F-ANA at 1 2 5 9 10 12 14` — result for “mean fluorescence intensity”: 62.2 a.u.
`2'F-ANA at 3 4 7 8 11 13 15`: “mean fluorescence intensity” 579 a.u.
`2'F-ANA at 3 5 6 7 8 11 13 14`: “mean fluorescence intensity” 63.9 a.u.
`2'F-ANA at 1 2 3 4 5 8 9 14`: “mean fluorescence intensity” 49.2 a.u.
`2'F-ANA at 1 4 5 7 9 12 13 14 15` — result for “mean fluorescence intensity”: 61.5 a.u.
`2'F-ANA at 2 3 4 6 9 10 11 14 15` — result for “mean fluorescence intensity”: 173 a.u.
`2'F-ANA at 2 3 8 12 14` — result for “mean fluorescence intensity”: 518 a.u.

Excerpt of the above (block 2):
For `V1I`, “normalised enrichment score” read 0.0122.
`V1Y` — result for “normalised enrichment score”: 0.855.
For `L7G`, “normalised enrichment score” read -0.189.
For `A3L`, “normalised enrichment score” read 0.702.
